Measurements gathered from unrelated publications.
Numbered parts are unrelated; each lists some results of a single study. Changes are numbered by the printed parent chain.

Series 1 — technique: protein binding microarray; molecule type: double-stranded DNA, one strand shown; sample: in vitro; concentration: not given; baseline: not given; reading: higher = stronger binding; quantity: E-score
Target: Histone acetyltransferase KAT6A, winged helix 1, GST fusion (KAT6A, Homo sapiens, UniProt Q92794, residues 1-85)
Notes: 8-mer, flanks averaged, mean of 2 arrays, mostly near background
Target sequence (chain): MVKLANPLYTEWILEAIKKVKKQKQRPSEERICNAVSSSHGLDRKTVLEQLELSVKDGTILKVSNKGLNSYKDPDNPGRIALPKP
TGCTTACA: -0.0521
CAACTCTG: -0.127
AGATGTCC: -0.0375
GACATAGA: -0.0941
AAACTCAG: -0.249
ACGTCGAG: -0.242
TCGTACAA: 0.0193
GAATAACC: -0.00624
AGCGTGCA: 0.105

Series 2 — technique: DHFR PCA, deep sequencing; sample: yeast; with: (+)-ABA 0.39 µM; baseline: wild-type fitted maximum; reading: higher = stronger binding; quantity: relative binding score
Target: ABI1, truncated, D143A, DHFR fusion (Arabidopsis thaliana)
Notes: methotrexate growth selection, single substitutions
Starting sequence: PYL1, truncated, DHFR fusion (Arabidopsis thaliana); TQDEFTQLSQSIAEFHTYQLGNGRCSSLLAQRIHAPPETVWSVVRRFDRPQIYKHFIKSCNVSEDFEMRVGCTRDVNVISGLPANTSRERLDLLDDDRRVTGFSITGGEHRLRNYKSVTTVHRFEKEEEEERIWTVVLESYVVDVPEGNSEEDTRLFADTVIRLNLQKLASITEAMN; partner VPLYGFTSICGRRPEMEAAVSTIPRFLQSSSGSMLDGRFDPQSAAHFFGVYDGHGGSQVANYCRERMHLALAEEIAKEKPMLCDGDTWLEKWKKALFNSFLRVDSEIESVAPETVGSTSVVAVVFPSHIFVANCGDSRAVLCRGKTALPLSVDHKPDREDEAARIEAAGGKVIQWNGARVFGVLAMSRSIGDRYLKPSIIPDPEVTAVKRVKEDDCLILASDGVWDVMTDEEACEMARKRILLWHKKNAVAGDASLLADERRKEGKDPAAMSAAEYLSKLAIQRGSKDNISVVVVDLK
S27Q: -1.7%
S11L: 13.4%
R32P: 10.6%
V121S: -6.72%
E130Y: 21.9%
R132T: 62.2%
R155W: -10%
T119A: -2.37%
E125V: 59.3%
I79W: 27.8%

Series 3 — technique: RNA Bind-n-Seq; molecule type: RNA; sample: in vitro; concentration: 365 nM; baseline: no-protein control; reading: higher = stronger binding; quantity: RBNS enrichment (R)
Target: RNA binding protein fox-1 homolog 2, RRM domain, GST-SBP tag (RBFOX2, Homo sapiens, UniProt O43251-10, residues 100-194)
Notes: natural RNA segment, single round, ends assumed
Constant ends, left off below: GGGAGUUCUACAGUCCGACGAUC … UGGAAUUCUCGGGUGCCAA
Residues (chain): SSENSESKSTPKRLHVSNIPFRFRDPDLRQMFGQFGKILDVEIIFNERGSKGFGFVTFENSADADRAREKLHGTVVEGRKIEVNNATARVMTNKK
CUGACCAACUGCCAAGCUCGCUUUGCUGCCCAGAGCACUGUCCCCUCACAGCAAGCACAAGUUGUCUGCACCACUUGGUUUCUGACUGAAGGGGAAGUACAGGACUACAU: 0.376
AACCCAGAGCCUUUUAUAUGCUGGGCAAGUGCUCUACAGUUUUCACUCUUUAUUCUGAGACAGGGUCUCCCCAUGUUGCCCAGGCUGGUCUUGAACAACUGCCUCACUCU: 0.409
AACCCAAACCCUGCGGUACCCACCCCGGUAGUGGCCAGUCAUCUUGUGCUGACAUUAGCAUUCACCCUGUUGGAUAGGUUAGCUUCCCGAGACAUCUCCUUCCACCAUUC: 0.45
CCAUUGUAACGGUUCCUGGAAGCUGGGCCCUCUCAUUGGCAUAUACAGUACUCCUCGCUGCAGGGCACUGUCCCACCGGGAUCCAGUUGCAAAGUUUGUCUUGACAGUUG: 0.384
AUUCCUUCCUGUCGAGUUAAAUCUAAUCAGAUAUGAUGGAUGCCGGUAGUCCCAGCACUUGGAGAAGGCUGGAGGACCAGAAUUCAAGGCUAUCCUUGGCUACACAGUGA: 0.338
UGUGAUGUUUGACUGUACCAUUGACUGUUAUGGAAGUUCAGCGUUGUAUGUCUCUCUCUACACUGUGGUGCACUUAACUUGUGGAAUUUUUAUACUAAAAAUGUAGAAUA: 2.62
CUCUGAACUAAUUCCUAAAGAGAAGCAACAAUAUGUGUAUGUGGGGGGGUUGAUCACAUACAUGUACCAUCGUGUGAUCAUAGUACUAUGAUUUGCUUUUGACGUCUGUC: 0.733
GGCCUGUCAUCCAUGGGGCCAUUGCAGGCACUCUGCCGCCCGACCUUGAGGGCUGUGCCAAUCCUAGUGAACCAAAAUGCAAACAACUCACACAAGUGAAAAGCUCCCUG: 0.752
UUUGAAGCUUCCAAUUUGCUUGCUGCUGCUGCUGCCUGGGGGCCAGGACAGAGGUAGUGGCGGCCCCCAUGCCGCCCUCCUUGAGCUGGUGAGGAGAAGUCGCCAUUGAG: 1.1
UUGCAGCCAGCGCUGCCCCAUGCCCUUCUGAUCCUCCCCCUCUCCCACCGCCCUCCCUGGAUAGGAUUUGGGCAGGGUUUCAGUCUCCACUGAUUGCCGCCUUGUUCUCC: 0.319
GCCAGUUUGAAUUAGAAGGCAAGGCUCUGAUUUUAGUAGUGUUUUGGAAAAGGACUUUUUUCUUCACCUUCCUCUUUGCCUCAUGUGUACACACACACACACAUCUUGUA: 0.983

Mixed results
PhoQ, residues 284 288 289 292 302 303 SMYGEC  fold induction (PhoP, residues 12 14 15 18 19 LYFRQ (Escherichia coli, UniProt P23836); Sort-seq, refers to: YFP reporter; E. coli; PhoQ-PhoP variant library, with: 10 µM Mg2+; baseline: high Mg2+ state, higher = stronger signaling): 8.84

For quick reference, copied from above (series 1):
TGCTTACA: -0.0521
CAACTCTG: -0.127
AGATGTCC: -0.0375
GACATAGA: -0.0941
AAACTCAG: -0.249
